Results of several laboratories.
Each numbered part is a random draw from the data of one study; scales do not carry over between parts.

Study 1 — technique: RNA Bind-n-Seq; molecule type: RNA; matrix: in vitro; concentration: 1 µM; setting: whole 134-nt RNA, ends assumed; with: 150 mM KCl; baseline: input library; direction: higher = stronger binding
Target: Ras GTPase-activating protein-binding protein 1, RRM domain (G3BP1, Homo sapiens, UniProt Q13283)
Sequence of UniProt Q13283 (whole entry, looked up): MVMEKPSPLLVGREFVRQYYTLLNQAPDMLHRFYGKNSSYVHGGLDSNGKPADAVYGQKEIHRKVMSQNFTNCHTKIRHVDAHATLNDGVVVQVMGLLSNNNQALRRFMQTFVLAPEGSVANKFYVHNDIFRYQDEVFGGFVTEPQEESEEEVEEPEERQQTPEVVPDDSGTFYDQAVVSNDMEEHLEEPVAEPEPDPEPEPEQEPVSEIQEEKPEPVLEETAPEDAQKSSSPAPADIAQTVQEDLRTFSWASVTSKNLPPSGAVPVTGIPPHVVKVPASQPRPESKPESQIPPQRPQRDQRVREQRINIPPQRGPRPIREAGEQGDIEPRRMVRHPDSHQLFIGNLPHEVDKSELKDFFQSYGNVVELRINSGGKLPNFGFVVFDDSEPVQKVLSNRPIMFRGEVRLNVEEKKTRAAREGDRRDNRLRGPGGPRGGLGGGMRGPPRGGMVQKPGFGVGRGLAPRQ
Constant ends, left off below: GGGAGUUCUACAGUCCGACGAUC … UGGAAUUCUCGGGUGUCAAGG
Sequence	log2 enrichment
UCAAGUCCUGUGCUACACAUCGUAUGUACCGAAUCGGUGGAAAGGUUUUUUUGGAAAGUAUUAUGUUACGCCGUUCGGAUCUGCACUUCC	-0.192
GUCCUGUGCUACACAUCGUAUGUACCGAAUCGGGGAAAAAGGAAAAAGGGGAAAAAGGGAAAGUAUUAUGUUACGCCGUUCGGAUCUGCA	-0.012
UCCUGUGCUACACAUCGUAUGUACCGAAUCGGGUUUUUUUGGGAAAAAGGGAAAAAGGGAAAGUAUUAUGUUACGCCGUUCGGAUCUGCA	-0.13
CAAGUCCUGUGCUACACAUCGUAUGUACCGAAUCAAACCCAAAUUUAAACCCAAAAAAGUAUUAUGUUACGCCGUUCGGAUCUGCACUUC	-0.216
AUGGAUGACCCCUCUGUGGGCCCCAAGAUCCCCCAGGCUUUGGAGAAGAUCCUGCAGCUGAAGGAGAGCCGCCAGGAAGAGAUGAAUUCU	-0.487
CACAGACAACACGCACCCACACAGACACAGAGGGAAGGGGUUGGGAUGGGGACAGGGUGCACAGCAAAACGGGGUAGGACCCCAGCCCCU	-0.13
UGGGGGGUGGAUUUUGUUUAUUUUUUUAGCUCAUUUCCAGGGGUGGGAAUUUUUUUUUAAUAUGUGUCAUGAAUAAAGUUGUUUUUGAAA	2.04
CCUGUGCUACACAUCGUAUGUACCGAAUCGGGUUUUUUGGGGUUUUUUGGUUUUUUGGGGAAAGUAUUAUGUUACGCCGUUCGGAUCUGC	-0.222
AAGUCCUGUGCUACACAUCGUAUGUACCGAAUCGGUUUUUGGUUUGGUUUUUUUGGAAAGUAUUAUGUUACGCCGUUCGGAUCUGCACUU	-0.357
UUUACAAAUAUGCCCAAGACUUCUUGGUGGCUAUUGCAGAGCCAGUGUGCCGACCAACCCAUGUGCAUGAGUACAAACUAACUGCCUACU	0.0311

Study 2 — technique: protein-binding microarray; molecule type: double-stranded DNA, one strand shown; matrix: in vitro; concentration: 250 nM; setting: 60-bp whole probe; with: salmon DNA 0.4 mg/ml; baseline: random background probes; direction: higher = stronger binding; constant ends, left off below: GCCTAGCAC … GTCTTGATTCGCTTGACGCTGCTG
Target: Interferon regulatory factor 7, full length, phosphomimetic (IRF7, Homo sapiens, UniProt Q92985, residues 1-503, S101K/S471D/S472D/S475D/S476D/S477D/S483D/S484D/S487D)
Construct (chain): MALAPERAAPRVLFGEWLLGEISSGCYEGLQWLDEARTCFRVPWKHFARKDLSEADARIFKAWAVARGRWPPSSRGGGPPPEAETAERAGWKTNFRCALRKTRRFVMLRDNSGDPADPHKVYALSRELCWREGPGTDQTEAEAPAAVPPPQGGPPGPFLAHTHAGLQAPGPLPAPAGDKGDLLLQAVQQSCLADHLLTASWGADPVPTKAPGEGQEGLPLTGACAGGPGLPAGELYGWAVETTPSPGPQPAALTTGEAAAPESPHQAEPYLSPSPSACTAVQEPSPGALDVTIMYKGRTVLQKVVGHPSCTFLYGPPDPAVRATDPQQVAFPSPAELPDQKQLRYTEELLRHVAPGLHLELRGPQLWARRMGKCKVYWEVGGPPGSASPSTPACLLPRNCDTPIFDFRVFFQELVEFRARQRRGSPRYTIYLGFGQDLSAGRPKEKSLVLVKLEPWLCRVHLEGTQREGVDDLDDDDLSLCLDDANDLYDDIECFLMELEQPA
Sequence	log fluorescence [z-score]
TCATTTCTTTTTTTCTTACTGTGCTAG	2.34
CACGGTATCGGTATCGGGACGTGCTAG	1.59
TTAGTACTGGGGACTGGATTAGTGCTA	-0.321
GACGGTATCGAAACTGGGGACGTGCTA	1.29
GACGGTCTACTTCTCCTGACGTGCTAG	-0.059
TCAACTAGCGGGTCTTGCACTGTGCTA	-0.735
GTAGGACTGGGTCTCGGTTAGTGCTAG	0.736
GACGGTTTCCTTAACCTGACGTGCTAG	0.982
TTAGATTCCACTTTCGATTAGTGCTAG	5.48
TTAGGTTTCGCCTATCGGTTAGTGCTA	3.84
TTACATATCAGACTGGATTAGTGCTAG	0.324
TTAGGTGTCCTTTCCCTTTAGTGCTAG	0.369
TTAGATATCAGACGGGATTAGTGCTAG	-0.266
TTAGATAACGGGTTTCGATTAGTGCTA	7.29
GACGGTCTCCTACTGCTGAGGTGCTAG	-0.443
GACGGCTTCGGGTTTCGGGACGTGCTA	1.8
TTAGGACTGGGTCTCGGCTAGTGCTAG	-0.0723
TCAATTTTTTTTCTAACACTGTGCTAG	0.486
GACCAGGGGCCACAGCCTCAGTGCTAG	-0.517
TTAGAAATCGGGTTTCGATTAGTGCTA	7.7
TTAGATTTCGGGTCTGGATTAGTGCTA	0.728
TTAGGACTGGGTCTCGGTAAGTGCTAG	0.224
TTAGGTTTCGCCACTGGGTTAGTGCTA	1.18
TCATCTTTCACTACTCCACTGTGCTAG	0.862
GACGATATCGGGTATCGAGAGGTGCTA	-0.34

Study 3 — technique: protein binding microarray; molecule type: double-stranded DNA, one strand shown; matrix: in vitro; concentration: not given; baseline: not given; direction: higher = stronger binding
Target: Histone acetyltransferase KAT6A, winged helix 1, GST fusion (KAT6A, Homo sapiens, UniProt Q92794, residues 1-85)
Setting: 8-mer, flanks averaged, mean of 2 arrays, mostly near background
Construct (chain): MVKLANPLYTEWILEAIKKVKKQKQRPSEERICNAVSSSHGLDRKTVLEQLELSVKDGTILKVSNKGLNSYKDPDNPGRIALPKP
Sequence	E-score
CTCAGTCC	-0.133
AACTACTC	-0.016
AATTAGTG	-0.106
AGTAGACT	-0.049
CGAAAGAG	-0.172
CAAAGGAA	-0.177
TGATTCCA	-0.198
ACTGTGAC	-0.157
AGGCGTCG	0.208
CTTTTAGA	0.00358
CGTTCGCC	0.167
CCAGTTTA	-0.172
AGACGCCG	0.291
AAAACGGT	0.0672
GACCCGGC	0.29
GCAACTAC	-0.0276
CAGGGGGG	-0.241
AAACTGAT	-0.0227
CGCTTTGC	0.195
GGTGCCCA	-0.00671
CCACGGCC	0.302
CTCAGAAG	-0.151
CTCTCACC	-0.0903
CTCAACCA	-0.138

Study 4 — technique: RNA Bind-n-Seq; molecule type: RNA; matrix: in vitro; concentration: 365 nM; baseline: no-protein control; direction: higher = stronger binding
Target: RNA binding protein fox-1 homolog 2, RRM domain, GST-SBP tag (RBFOX2, Homo sapiens, UniProt O43251-10, residues 100-194)
Setting: natural RNA segment, single round, ends assumed
Constant ends, left off below: GGGAGUUCUACAGUCCGACGAUC … UGGAAUUCUCGGGUGCCAA
Residues (chain): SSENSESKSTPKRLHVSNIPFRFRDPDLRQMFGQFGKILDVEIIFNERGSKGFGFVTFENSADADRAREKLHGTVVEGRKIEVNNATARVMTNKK
Sequence	RBNS enrichment (R)
AAAAUAGAUACCAUGGUUUGUGCAAUUAUGUAGUAAAAAAGGCAAAUCUUUUCACCUCUGGCUAUUCCUGAGACCCCAGGAAGUCAGGAAAAGCCUUUCAGCUCACCCAU	0.518
AUUUGAUGAGGACGACUGGUCCGAUUAACUCUUUCUGCCUGCUGCCCACCUUCUUUUUCUUUCCUUCCUACCUGCCUUCUUUGAUGCCAACCCCAACAGACCCGUAGGGG	2.15
AAACCCAGCUCCCUUCUUCCCUAGCCUGGUGCUUCUCCUCUCCUAGCCCCUGUCAUGGUGUCCAGACAGAGCCCUGUGAGGCUGGGUCCAAUUGUGGCACUUGGGGCACC	0.558
UGGUGACUGAUUUCAAAUCAUGUUUUUUCUGCAAUGACUGUGGAGUUCCAUUCUUGGCAUCUACUCUGGACCAAGGAGCAUCCCUAAUUCUUCAUAGGGACCUUUAAAAA	0.226
UGGGAUACCUCCAGGUUCCAGUAAAAUUCUUCUGACCGAAACCAAUGUGGGUGUUAGAAAAAUUACCAUAUAGCUUAAUAUGUUUAUUAGUUCUCUUUGGAAAAAAACUA	0.298
CCAGUUGUAGCAGGUUUCACUAUUCCUAUGCUGGGGUACACAGUGAGAGUACUCACUUUUCACUUGUCUUGCUCUUAGAUUGGGCCAUGGCUUUCAUCCUGUGUCCCCUG	0.288
CACUCCCCCCUCCAUUCCCACCCCUCAUACCUACACCCAAGGUUGUCAGCUUUGGAUUGCUGGGGCCAGGCCCCAUGGAGGGUAUACUGAGGGGUCUAUAGGUUUGUGAU	0.283
AAAUGUUCGUUUCUUCUGAAGUAAAUAUACAUAUAUAAAUAAAUGUAUAAAUACUGCUUUGUAUCUGAGCUUGCCUCCUUGUCUCUUCUUGGGAUUGGUCUGGUGGGAGA	0.574
AAUGCUUGUUUUUUUAUCCCUGUUGAGUUUUUUUAAUUAAACGACACAAAACUACUACAUUGCCGAUUUUCUUUCAUGGGUUGCAUUGUGUAGUCCUUUUGUCUAGCUGU	0.53
UUAACAACCCUUUAACAAACUAAAUAAUUUUUAAGCAGCCAGGAAAUUUUAGAGGACAGAUAUUUGACCAAAAGACUAUCAACUUUAAACAUUUAUUUUAUGGUUUCUUG	0.683
GAGCCCCAUUUCCAAGACCCCUCACAUCCAAUCCUGUCCUGUAACAUCCAUCAAGGAUUUCCAUAGGGGUGACUGGUGCCCACCCAAGACUGCACCAGUGCCUGCUCAUU	0.907
AAGAUAAGAAAAAGAAAAAUAUAUUGUUCAUAAUGUAAAUAAGUGUAUGCUUAUUUAUUUGGGGGGAAAACUAUACAUUAAAGGACCUUUGUCCUAAGCUCUCUCCCAGG	0.659

Repeated from above (study 3):
Sequence	E-score
CTTTTAGA	0.00358
AGACGCCG	0.291
AAACTGAT	-0.0227
GGTGCCCA	-0.00671
CTCAGTCC	-0.133
GACCCGGC	0.29
CTCTCACC	-0.0903
CCAGTTTA	-0.172
GCAACTAC	-0.0276
CTCAGAAG	-0.151
CGTTCGCC	0.167
